Measurements gathered from unrelated publications.
Compare with care: the assays were run in different laboratories. “And” joins repeats or separate records; there may be more than shown. ± gives the spread as reported.

SMILES	cell line	assay	system	setting	how to read	quantity	result
C[C@H]1O[C@@H](O[C@H]2[C@@H](O)C[C@H](O[C@H]3[C@@H](O)C[C@H](O[C@H]4CC[C@@]5(C)[C@H](CC[C@@H]6[C@@H]5C[C@@H](O)[C@]5(C)[C@@H](C7=CC(=O)OC7)CC[C@]65O)C4)O[C@@H]3C)O[C@@H]2C)C[C@H](O)[C@@H]1O	MDCK-MDR1 cells	–	–	5 µM, pH 7.4	–	Papp B to A	22.2 ×10⁻⁶ cm/s
C[C@H]1[C@H](OC(=O)CCC(=O)O)O[C@@H]2O[C@@]3(C)CC[C@H]4[C@H](C)CC[C@@H]1[C@@]24OO3	human iPSC-derived cardiomyocytes	cell viability	–	–	–	highest non-toxic concentration	> 50 µM
O=C(NCc1cc(O)c(O)c(Br)c1)c1nccs1	Vero-E6	CCK-8	–	24 h	–	CC50	> 800 µM
CC(C)n1nccc1-c1ncccc1COc1cccc(O)c1C=O	MDCK	–	–	1 µM, 90 min, pH 6.5 apical, 7.4 basolateral, apical to basolateral	–	mass recovery	82 ± 4%
COc1cccc(-c2n[nH]c(SCc3ccccn3)n2)c1OC	CHO-WBL	micronucleus test	–	100 µg/mL, 3 h, added: rat liver S9	–	cytostasis	-2%
CCS(=O)(=O)Oc1ccc(C=NNC(=O)c2nc3ccccc3s2)cc1	BJ-1 fibroblasts	MTT	–	100 µM, 48 h	–	cytotoxicity	49.5%
Cc1cnc(Nc2ccc(OCCN3CCCC3)cc2)nc1Nc1cccc(S(=O)(=O)NC(C)(C)C)c1	MDCK	–	–	1 µM, 90 min, pH 6.5 apical, 7.4 basolateral, basolateral to apical	–	mass recovery	78 ± 2%
O=c1cc[nH]c(=O)[nH]1	HCT-8 infected with Cryptosporidium parvum	Hoechst nuclei count	–	1 mM, 24 h	reference: PBS	host cell number	0.992 ± 0.021
CCCS(=O)(=O)Oc1ccc(C=NNC(=O)c2nc3ccccc3s2)cc1OC	BJ-1 fibroblasts	MTT	–	100 µM, 48 h	–	cytotoxicity	56.2%
CN(CCc1ccc(Cl)c(Oc2cc(Cl)cc(C#N)c2)c1)C(=O)CCl	MT2 T-cells, uninfected	–	–	concentration not given	reference: non-methylated 2-chloroacetamide analogue	fold increase in cytotoxicity	6 fold
O=C(CS(=O)(=O)O)Nc1nc2ccccc2s1	MDCK-MDR1	–	–	MDR1 inhibited	–	Papp	0.006 ×10⁻⁶ cm/s
CC1=CC[C@H]2[C@@H]([C@@H]1CC[C@H]1[C@]3(C)CC[C@H](O)C(C)(C)O[C@H]3CC[C@]1(C)O)C(C)(C)CC[C@]2(C)O	KB-V1 (P-gp overexpressing)	cell viability, MTT	DMEM with 10% bovine serum	72 h	–	IC50	> 50 µM
Nc1nc2nc[nH]c2c(=O)[nH]1	HCT-8 infected with Cryptosporidium parvum	Hoechst nuclei count	–	1 mM, 24 h	reference: PBS	host cell number	1 ± 0.045
COc1ccc(Nc2cnnc3cc(-c4ccc(S(=O)(=O)N5CCN(C)CC5)cc4)ccc23)cc1Cl	B10R mouse macrophages	cytotoxicity	–	–	–	TC50	> 10 µM
CC(=O)Oc1ccccc1C(=O)O	human iPSC-derived cardiomyocytes	–	–	100 µM	–	beat rate	44.2 ± 1.3 min⁻¹
Cc1ccc(C(=O)O)cc1	HCT-8 infected with Cryptosporidium parvum	Hoechst nuclei count	–	1 mM, 24 h	reference: PBS	host cell number	0.982 ± 0.023
COc1cc2ncnc(Nc3ccc(Oc4ccccc4)cc3C)c2cc1OC.O=C(O)C(F)(F)F	A-375 (BRAF V600E)	–	–	0.3 µM, 72 h	–	viability	1 fraction of control
CCn1c(=O)c2c(nc(/C=C/c3ccc(OC)c(OC)c3)n2C)n(CC)c1=O	MDCK	–	–	1 µM, 90 min, pH 6.5 apical, 7.4 basolateral, apical to basolateral	–	mass recovery	91 ± 21%
O=C(O)CCCOc1ccc(F)cc1-c1cc(-c2ccccc2C(F)(F)F)n(-c2ccccc2)n1	human iPSC-derived cardiomyocytes	–	–	2 µM	–	beat rate	46.8 ± 1.9 min⁻¹
CCC(=CCc1c(O)cc2c(c1O)C(=O)CC(c1ccc(O)cc1)O2)CC (stereo in doubt)	HeLa	cytotoxicity, MTT	–	48 h, added: S9 fraction	–	log IC50	1.28 log µM
CCCCC[C@H](O)/C=C/[C@H]1[C@H](O)CC(=O)[C@@H]1C/C=C\CCCC(=O)O	HCT-8 infected with Cryptosporidium parvum	Hoechst nuclei count	–	0.05 mM, 24 h	reference: PBS	host cell number	1.02 ± 0.107
CC(C)C[C@H](NC(=O)[C@H](CC(C)C)NC(=O)[C@H](CCCNC(=N)N)NC(=O)[C@H](CCCCN)NC(=O)[C@H](CCCNC(=N)N)NC(=O)[C@H](CC(C)C)NC(=O)[C@H](CCCCN)NC(=O)[C@H](CCCNC(=N)N)NC(=O)[C@H](CC(C)C)NC(=O)[C@H](CC(C)C)NC(=O)[C@H](CC(C)C)NC(=O)[C@H](CCCNC(=N)N)NC(=O)[C@H](CCCCN)NC(=O)[C@H](CCCNC(=N)N)NC(=O)[C@H](CC(C)C)NC(=O)[C@H](CCCCN)NC(=O)[C@H](CCCNC(=N)N)NC(=O)[C@H](CC(C)C)NC(=O)CNC(=O)CNC(=O)CNC(=O)c1ccc2c(c1)C(=O)OC21c2ccc(O)cc2Oc2cc(O)ccc21)C(N)=O	hCMEC/D3 monolayers	BBB permeability, Transwell, measured: CF-labelled compound	EGM-2 medium	concentration not given, 1 h, apical to basal	reference: fluorescence added apically	transport ratio	5.1%

SMILES	cell line	assay	system	setting	how to read	quantity	result
C[C@H](CCC(=O)O)[C@H]1CC[C@H]2[C@@H]3CC[C@@H]4C[C@H](O)CC[C@]4(C)[C@H]3CC[C@]12C	HCT-8 infected with Cryptosporidium parvum	Hoechst nuclei count	–	0.1 mM, 24 h	reference: PBS	host cell number	0.923 ± 0.111
CC(=O)Nc1cccc(-n2c(=O)n(C3CC3)c(=O)c3c(Nc4ccc(I)cc4F)n(C)c(=O)c(C)c32)c1	MeWo	resazurin	–	50.00 nM, 72 h, unit not given	reference: DMSO	viability	0.548 and 0.522
COc1ccc(C=NNC(=O)c2nc3ccccc3s2)cc1OS(C)(=O)=O	BJ-1 fibroblasts	MTT	–	100 µM, 48 h	–	cytotoxicity	43.5%
CCCC(CCC)NC(=O)c1ccc2c(c1)OCO2	CHO-WBL	–	–	0.021 mg/mL, 3 h, with rat liver S9	–	relative mitotic index	107%
O=C(Nc1ccc2c(c1)OC(F)(F)O2)Nc1ccc(Cl)c(C(F)(F)F)c1	NIH/3T3	–	–	24 h	–	CC50	7.93 µM
CC(=O)Nc1ccc(O)cc1	MDCK	–	–	1 µM, 90 min, pH 6.5 apical, 7.4 basolateral, basolateral to apical	–	mass recovery	89 ± 9%
O=C(O)CC(O)C(=O)O (racemic)	HCT-8 infected with Cryptosporidium parvum	Hoechst nuclei count	–	1 mM, 24 h	reference: PBS	host cell number	0.987 ± 0.04
CC(C)NCC(O)COc1cccc2ccccc12 (stereo not shown)	C2BBe1 (Caco-2 clone)	–	–	–	–	Papp	25.2 ×10⁻⁶ cm/s
COc1ccc(C[C@H]2CO[C@H](c3ccc(OC)c(OC)c3)[C@H]2COC(=O)CC(C)C)cc1OC	HEK293/NF-κB-luc	CellTracker Green CMFDA	–	20 µM, 4.5 h, serum-free medium	reference: stimulated untreated cells	viability	119 ± 6%
C[C@@H](c1ncncc1F)[C@](O)(Cn1cncn1)c1ccc(F)cc1F	MDCK	–	–	1 µM, 90 min, pH 7.4 apical, 7.4 basolateral	–	Papp A to B	31.6 ×10⁻⁶ cm/s and 28.8 ×10⁻⁶ cm/s
Cc1noc(C)c1Cn1cc(N2C(=O)CN(Cc3cccc(O)c3)C2=O)cn1	human blood lymphocytes	–	–	296.6 µg/mL, 3 h	–	aberrant cells without gaps	1%
Cc1cc(C(=O)NC(C)(C)COc2cccc3c2C(N)=NS(=O)(=O)N3)cc(C)n1	human peripheral blood lymphocytes	CBPI, concurrent micronucleus test	–	1500 µg/mL, 24 h	reference: vehicle control	cytotoxicity	5%
NC(=O)NCCC[C@H](N)C(=O)O	HCT-8 infected with Cryptosporidium parvum	Hoechst nuclei count	–	1 mM, 24 h	reference: PBS	host cell number	1.01 ± 0.055
Cn1cc2c(C(=O)O)ccc(NS(=O)(=O)c3ccc(Cl)c(Cl)c3)c2n1	RRCK cells	passive permeability	–	–	–	apparent permeability	5.3 ×10⁻⁶ cm/s
CN(C)c1ccc(C(=C2C=CC(=[N+](C)C)C=C2)c2ccc(N(C)C)cc2)cc1	MYBPC3 iPSC cardiomyocytes	cytotoxicity	–	24 h	–	EC50	39.3 µM
CC(C)C[C@H](NC(=O)OCc1ccccc1)C(=O)N[C@@H](CC1CCNC1=O)C(O)S(=O)(=O)O (stereo partly shown)	Vero-E6	CCK-8	–	24 h	–	CC50	> 800 µM
CCCCCS(=O)(=O)NC1CCN(c2ncnc3c2nc(-c2ccccc2Cl)n3-c2ccc(Cl)cc2)CC1	MDCK-MDR1	–	–	10 µM, 1 h, pH 7.4, 37 °C	–	permeability A to B	< 0.1%
C[C@@H]1COCCN1c1nc(-c2cnc(N)s2)nc2c1C[C@@H]1COCCN21	MDCK	–	–	1 µM, 20 (unit not given)	–	Papp A to B	15.5 ×10⁻⁶ cm/s
CC(=O)Nc1ccc(O)cc1	THLE-2, 3D culture	MTT	–	100 µM, 96 h	–	viability	67.4%
O=C(O)/C=C/C(=O)O	HCT-8 infected with Cryptosporidium parvum	Hoechst nuclei count	–	1 mM, 24 h	reference: PBS	host cell number	0.962 ± 0.016
Cc1ccc(Nc2cnnc3ccc(-c4ccc(N5CCN(C)CC5)cc4)cc23)cn1	B10R mouse macrophages	cytotoxicity	–	–	–	TC50	3.9 µM
